Measured values pooled from the literature.
A part holds a random share of what one study measured. “And” joins repeats or separate records; there may be more than shown.

Set 1
SMILES: Cc1cc2c(C(N)=O)c(N)n(-c3c(C)ccc(O)c3C)c2nc1C
The inhibition was 7.75% and 3.72% (SW1463; cell proliferation; 41.15 nM).
It gave 81.7% for inhibition (HCC1569; automated capillary immunoblot, measured: CDK1 phospho-Thr14; 333.33 nM).
For HuCCT-1; cell proliferation; 41.15 nM: inhibition read 0.15% and 2.54% and 3.52%.
LN-229; cell proliferation; 10000 nM — inhibition: 97.6%.

Set 2
Target: SRSF protein kinase 1 (SRPK1, Homo sapiens, UniProt Q96SB4)
Chain of UniProt Q96SB4 (whole entry, looked up): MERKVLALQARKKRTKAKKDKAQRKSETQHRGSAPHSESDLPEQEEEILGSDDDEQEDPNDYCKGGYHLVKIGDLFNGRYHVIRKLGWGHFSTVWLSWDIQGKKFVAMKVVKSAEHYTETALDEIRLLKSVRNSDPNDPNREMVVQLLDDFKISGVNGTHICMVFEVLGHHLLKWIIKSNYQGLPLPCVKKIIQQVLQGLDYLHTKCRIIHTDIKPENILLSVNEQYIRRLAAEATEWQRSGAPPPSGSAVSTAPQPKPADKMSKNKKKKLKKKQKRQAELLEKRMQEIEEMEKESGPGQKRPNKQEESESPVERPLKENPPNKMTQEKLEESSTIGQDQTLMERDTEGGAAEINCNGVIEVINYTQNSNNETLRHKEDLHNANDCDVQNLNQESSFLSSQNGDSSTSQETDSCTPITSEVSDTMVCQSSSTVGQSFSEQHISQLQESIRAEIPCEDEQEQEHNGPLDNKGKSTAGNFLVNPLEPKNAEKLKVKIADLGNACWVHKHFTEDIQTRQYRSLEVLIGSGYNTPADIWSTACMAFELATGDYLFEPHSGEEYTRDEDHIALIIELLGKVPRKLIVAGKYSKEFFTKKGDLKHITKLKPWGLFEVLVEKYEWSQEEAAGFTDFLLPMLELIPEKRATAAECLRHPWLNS
Read-out: enzyme activity
Action: inhibitor
Concentration: 0.5 µM
Relative to: control
`O=S(=O)(c1cccc2cnccc12)N1CCCNCC1` gave a remaining activity of 92.6%.
With `CCOC(=O)c1c(C)[nH]c(/C=C2\C(=O)Nc3ccccc32)c1C` the remaining activity was 95.4%.
With `Nc1ccc2ncnc(NCCc3ccc(Oc4ccccc4)cc3)c2c1` the remaining activity was 99.8%.
For `CC(C)[C@H](CO)Nc1nc(Nc2cc(N)cc(Cl)c2)c2ncn(C(C)C)c2n1`, the remaining activity was 62.1%.
The remaining activity of `NCCNc1ncc(C(N)=O)c(Nc2cccc(C(F)(F)F)c2)n1` is reported as 94.5%.
For `O=c1c2ccccc2[nH]c(=S)n1CCN1CCC(=C(c2ccc(F)cc2)c2ccc(F)cc2)CC1`, the remaining activity was 97.8%.
The remaining activity of `Oc1ccc(-c2nc(-c3ccncc3)c(-c3ccc(F)cc3)[nH]2)cc1` is reported as 109%.
`O=C(CCCc1ccc(-c2ccccc2F)cc1)Nc1ccc(O)cc1` has a remaining activity of 98.6%.
`C#Cc1cccc(Nc2ncnc3cc(OCCOC)c(OCCOC)cc23)c1` gave a remaining activity of 98%.
For `O=C1NC(=O)C(c2cn(CCCn3ccnc3)c3ccccc23)=C1Nc1ccccc1`, the remaining activity was 99.5%.
The remaining activity of `Nc1ncnc2n[nH]c(Nc3ccc(F)cc3)c12` is reported as 104%.
`O=C1NC(=O)C(c2cn(CCCO)c3ncccc23)=C1c1cnccn1` gave a remaining activity of 98%.
The remaining activity of `COc1ccc(CNC(=O)Nc2ncc([N+](=O)[O-])s2)cc1` is reported as 92.9%.
`COc1ccc(OC)c2c(=S)c3ccccc3[nH]c12` gave a remaining activity of 99.9%.
For `CN(C)c1ccc(C=C2C(=O)Nc3ccccc32)cc1`, the remaining activity was 95.4%.

Set 3
Target: Histamine H2 receptor (HRH2, Homo sapiens, UniProt P25021)
Chain of UniProt P25021 (whole entry, looked up): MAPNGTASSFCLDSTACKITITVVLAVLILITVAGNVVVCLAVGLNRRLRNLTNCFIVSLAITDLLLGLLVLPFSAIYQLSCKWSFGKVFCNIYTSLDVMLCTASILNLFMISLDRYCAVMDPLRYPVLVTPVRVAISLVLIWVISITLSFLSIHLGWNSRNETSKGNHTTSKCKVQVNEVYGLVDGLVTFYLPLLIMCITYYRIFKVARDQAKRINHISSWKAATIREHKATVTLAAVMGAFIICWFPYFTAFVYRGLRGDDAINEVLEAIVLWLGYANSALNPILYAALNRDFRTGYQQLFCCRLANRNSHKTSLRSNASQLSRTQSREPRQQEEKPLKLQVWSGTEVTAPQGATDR
Read-out: binding
Technique: radioligand binding
Concentration: 10 µM
The inhibition of `CC(C)(O)c1cncc(-c2nc3ccc(F)cc3n2C2CC2)c1` is reported as 1.75%.
`Nc1c(C(=O)NCc2ccc(C(=O)NCCCC3CCCCC3)cc2)cnn1-c1ccccc1` has an inhibition of -12.2%.
The inhibition of `CCOCCn1cc(C(=O)Nc2ccc(-n3nc(-c4cccnc4)cc3C(F)(F)F)cn2)ccc1=O` is reported as -3.48%.
`COCc1nc2cnc3cc(-c4c(C)noc4C)c(OC[C@H]4CCNC4)cc3c2n1[C@H](C)c1ccccc1` gave an inhibition of 12.3%.
For `O=C(NC[C@@H]1[C@H]2CN(C(=O)OCc3cc(C(F)(F)F)cc(C(F)(F)F)c3)C[C@@H]12)c1ccc2[nH]nnc2c1`, the inhibition was 28.1%.
With `Cc1c(NC(=O)c2cc(C(N)=O)nc3cc(F)ccc23)c(C(F)(F)F)nn1Cc1ccc(C(C)(C)C)cc1` the inhibition was 32.4%.
`CNC(=O)Nc1ccc2c(c1)[C@]1(CC2)OC(=O)N(CC(=O)N(Cc2ccc(F)cc2)[C@@H](C)C(F)(F)F)C1=O` has an inhibition of 6.93%.
`Cc1cc(C)c(-n2ccn3nc(-c4cccnc4)cc23)cc1NC(=O)c1cc(C#N)cc(S(F)(F)(F)(F)F)c1` gave an inhibition of 25.6%.
With `Cc1nc(Cc2cccc(C(F)(F)F)c2)sc1-c1ccc(C(N)=O)nc1` the inhibition was 6.05%.
With `O=C([C@H]1C[C@H](O)CN1c1ccc(Cl)cc1)N1CC2COCC(C1)N2Cc1ccc(Cl)cc1` the inhibition was 8.13%.

Set 4
Compound: COc1cc(C(=O)N2CCC(N3CCN(C)CC3)CC2)ccc1Nc1ncc2c(n1)N(C)c1ccccc1C(=O)N2C
It gave -5.3% for inhibition (MAP3K3 (human); probe labelling, KiNativ ADP probe; human PBMC lysate; concentration not given, LYS1 labelled site).
CaMK2a (mouse); probe labelling, KiNativ, measured: Lys1 site peptide; brain tissue lysate (mouse); 1 µM, with: ATP acyl-phosphate probe — inhibition: 14.6%.
It gave -14.2% for inhibition (IGF1R (human); probe labelling, KiNativ ADP probe; human PBMC lysate; concentration not given, LYS1 labelled site).
The inhibition was 2.8% (mouse NEK9; probe labelling, KiNativ ATP probe; mouse brain lysate; 0.1 µM, activation loop LGDYGLAkK).
The inhibition was 1.7% (PIP5K1C (mouse); probe labelling, KiNativ, measured: ATP site peptide; brain tissue lysate (mouse); 0.1 µM, with: ATP acyl-phosphate probe).
For PIP4K2C mouse; KiNativ profiling; mouse brain lysate; 1 µM, ATP site, with: ADP acyl phosphate probe: inhibition read -1.5%.
CaMK1b (mouse); probe labelling, KiNativ, measured: Lys1 site peptide; brain tissue lysate (mouse); 0.1 µM, with: ADP acyl-phosphate probe — inhibition: -9.3%.

Repeated from above (set 2):
`O=C(CCCc1ccc(-c2ccccc2F)cc1)Nc1ccc(O)cc1` has a remaining activity of 98.6%.
`C#Cc1cccc(Nc2ncnc3cc(OCCOC)c(OCCOC)cc23)c1` gave a remaining activity of 98%.
For `O=C1NC(=O)C(c2cn(CCCn3ccnc3)c3ccccc23)=C1Nc1ccccc1`, the remaining activity was 99.5%.
The remaining activity of `Nc1ncnc2n[nH]c(Nc3ccc(F)cc3)c12` is reported as 104%.
`O=C1NC(=O)C(c2cn(CCCO)c3ncccc23)=C1c1cnccn1` gave a remaining activity of 98%.
The remaining activity of `COc1ccc(CNC(=O)Nc2ncc([N+](=O)[O-])s2)cc1` is reported as 92.9%.
